# Measured values pooled from the literature.
# Organism: Acinetobacter baumannii
Structure (SMILES),assay,test system,conditions,MIC
CCCCCCCC(=O)N[C@@H](CCN)C(=O)N[C@H](C(=O)N[C@@H](CCN)C(=O)N[C@H]1CCNC(=O)[C@H]([C@@H](C)O)NC(=O)[C@H](CCN)NC(=O)[C@H](CCN)NC(=O)[C@H](CC(C)C)NC(=O)[C@@H](CCc2ccccc2)NC(=O)[C@H](CCN)NC1=O)[C@@H](C)O,broth microdilution,colistin-resistant isolates,,4 to 8 µg/mL
CCCCCCCC(=O)N[C@@H](CCN)C(=O)N[C@@H](C)C(=O)N[C@@H](CCN)C(=O)N[C@H]1CCNC(=O)[C@H]([C@@H](C)O)NC(=O)[C@H](CCN)NC(=O)[C@H](CCN)NC(=O)[C@H](CC(C)C)NC(=O)[C@@H](Cc2ccccc2)NC(=O)[C@H](CCN)NC1=O,CLSI broth microdilution,"5075, CAMHB","20 h, 37 °C",> 512 µg/mL
CN[C@@H]1[C@H](O)[C@H](NC)[C@H]2O[C@]3(O)[C@H](O[C@@H]2[C@H]1O)O[C@H](C)C[C@H]3NC(=O)Cc1cc(Cl)ccn1,"microbial growth, broth dilution",ATCC19606,,> 200 µg/mL
CN[C@H](CC(C)C)C(=O)N[C@H]1C(=O)N[C@@H](CC(N)=O)C(=O)N[C@H]2C(=O)N[C@H]3C(=O)N[C@H](C(=O)N[C@H](C(=O)NCC(N)=O)c4cc(O)cc(O)c4-c4cc3ccc4O)[C@H](O)c3ccc(c(Cl)c3)Oc3cc2cc(c3O[C@@H]2O[C@H](CO)[C@@H](O)[C@H](O)[C@H]2O[C@H]2C[C@](C)(NCc3ccc(OCc4cn(CC(=O)N[C@H](C(=O)N[C@@H](CCN)C(=O)N[C@H]5CCNC(=O)[C@H]([C@@H](C)O)NC(=O)[C@H](CCN)NC(=O)[C@H](CCN)NC(=O)[C@H](CC(C)C)NC(=O)[C@@H](CC(C)C)NC(=O)[C@H](CCN)NC5=O)[C@@H](C)O)nn4)c(OC)c3)[C@H](O)[C@H](C)O2)Oc2ccc(cc2Cl)[C@H]1O,broth microdilution,BAA-747,,6 µM
CC[C@H](C)[C@H](NC(=O)[C@@H](CCCNC(=N)N)NC(=O)[C@H](CCCNC(=N)N)NC(=O)[C@H](Cc1c[nH]cn1)NC(=O)[C@H](Cc1c[nH]c2ccccc12)NC(=O)[C@H](CCCNC(=N)N)NC(=O)[C@@H]1CCCN1C(=O)[C@H](CCCNC(=N)N)NC(=O)[C@@H]1CCCN1C(=O)[C@H](CC(C)C)NC(=O)[C@H](Cc1ccc(O)cc1)NC(=O)[C@@H]1CCCN1C(=O)[C@@H]1CCCN1C(=O)[C@H](CCCCN)NC(=O)[C@H](CC(=O)O)NC(=O)[C@@H](N)C(C)C)C(=O)N[C@@H](Cc1ccc(O)cc1)C(=O)N[C@@H](CC(N)=O)C(=O)N[C@H](CCCNC(=N)N)C(N)=O,broth microdilution,DSM 30008,"18 h, 37 °C, 25% MHB2",64 µg/mL
CC(=O)N[C@H](Cc1ccc(C(F)(F)F)cc1)C(=O)N[C@@H](CCN)C(=O)N[C@H](C(=O)N[C@@H](CCN)C(=O)N[C@H]1CCNC(=O)[C@H]([C@@H](C)O)NC(=O)[C@H](CCN)NC(=O)[C@H](CCN)NC(=O)[C@H](CC(C)C)NC(=O)[C@@H](Cc2ccccc2)NC(=O)[C@H](CCN)NC1=O)[C@@H](C)O,broth microdilution,"ATCC 19606, colistin-susceptible",,0.5 to 2 µg/mL
CCn1c(-c2ccc(-c3ccc(OC)cc3)cc2)c(-c2ccc(-c3ccc(OC)cc3)cc2)n(CC)c1=[Se],broth microdilution,carbapenem-resistant,24 h,> 40 µM
CC[C@H](C)[C@H](NC(=O)[C@H](CCCCN)NC(=O)[C@@H](NC(=O)[C@@H](NC(=O)[C@H](CC(C)C)NC(=O)[C@H](CCCNC(=N)N)NC(=O)[C@@H](NC(=O)[C@H](CC(C)C)NC(=O)[C@H](CCCNC(=N)N)NC(=O)CNC(=O)[C@H](Cc1ccccc1)NC(=O)[C@@H](N)CCCNC(=N)N)[C@@H](C)CC)[C@@H](C)CC)C(C)C)C(=O)N[C@@H](C)C(=O)N[C@@H](CCCNC(=N)N)C(=O)N[C@@H](CCCNC(=N)N)C(=O)N[C@@H](C)C(=O)N[C@@H](Cc1c[nH]cn1)C(=O)N[C@@H](CCCNC(=N)N)C(=O)N[C@@H](C)C(=O)N[C@@H](CCCNC(=N)N)C(=O)N[C@@H](CO)C(=O)N[C@@H](C)C(=O)N[C@H](C(=O)N[C@@H](CCCCN)C(=O)N[C@@H](C)C(=O)N[C@@H](C)C(=O)N[C@@H](CO)C(=O)N[C@@H](CC(N)=O)C(=O)N[C@H](C(=O)N[C@@H](C)C(=O)N[C@@H](C)C(=O)N[C@@H](CC(C)C)C(=O)N[C@@H](C)C(=O)N[C@@H](Cc1c[nH]cn1)C(=O)NCC(=O)N[C@@H](C)C(=O)O)C(C)C)C(C)C,"bacterial growth, broth microdilution",cation-adjusted Mueller Hinton broth,"18 h, 37 °C",≤ 0.064 µM
CC[C@H](C)[C@H](NC(=O)[C@H](C)NC(=O)[C@@H](NC(=O)[C@H](CC(=O)O)NC(=O)[C@H](CCCCN)NC(=O)[C@H](CO)NC(=O)[C@@H](NC(=O)[C@H](CC(N)=O)NC(=O)[C@H](C)NC(=O)[C@@H](NC(=O)[C@H](CCC(=O)O)NC(=O)[C@H](CCCCN)NC(=O)[C@@H](NC(=O)[C@@H](NC(=O)[C@H](Cc1c[nH]cn1)NC(=O)[C@H](CCCCN)NC(=O)[C@@H](NC(=O)[C@H](CCCCN)NC(=O)[C@H](CCCCN)NC(=O)[C@@H](NC(=O)[C@H](CC(C)C)NC(=O)[C@H](CCCCN)NC(=O)[C@H](CC(N)=O)NC(=O)[C@H](Cc1ccccc1)NC(=O)[C@H](CCCNC(=N)N)NC(=O)[C@H](CCCCN)NC(=O)[C@H](CCCNC(=N)N)NC(=O)[C@H](Cc1ccccc1)NC(=O)CN)C(C)C)C(C)C)[C@@H](C)O)[C@@H](C)CC)[C@@H](C)O)C(C)C)C(C)C)C(=O)N[C@H](C(=O)N[C@@H](C)C(=O)NCC(=O)N[C@@H](CO)C(=O)NCC(=O)N[C@H](C(=O)N[C@@H](C)C(=O)N[C@H](C(=O)NCC(=O)N[C@@H](C)C(=O)N[C@@H](C)C(=O)N[C@@H](CCSC)C(N)=O)C(C)C)C(C)C)C(C)C,broth microdilution,"RKI 19/09, CAMHB with 10% mouse serum",,0.03 µg/mL
C=C1NC(=O)C2C[S+]([O-])CC3NC(=O)C(CSC(C)C(NC(=S)C(Cc4cnc[nH]4)NC(=O)c4csc(C(C)NC(C)=O)n4)C(=O)N[C@H](CC(C)C(=O)NC(=O)CC(C(=O)O)NC(=O)C(C)NC3=O)C(=O)N2)NC(=O)[C@@H]2CCCN2C(=O)[C@@H](CC(C)C)NC1=O (stereo partly drawn),bacterial growth,09987,,> 32 µg/mL
CC(C)C[C@@H](NC(=O)[C@@H](CCCNC(=N)N)NC(=O)[C@H](N)CCCNC(=N)N)C(=O)N[C@H](CC(C)C)C(=O)N[C@H](CCCNC(=N)N)C(=O)N[C@H](CCCCN)C(=O)N[C@H](CC(C)C)C(=O)N[C@H](CCCCN)C(=O)NCC(=O)N[C@H](CCCCN)C(=O)N[C@H](CCCCN)C(=O)N[C@H](CC(C)C)C(=O)N[C@H](Cc1ccc(O)cc1)C(=O)N[C@H](CC(C)C)C(=O)N[C@H](Cc1ccc(O)cc1)C(=O)N[C@H](Cc1ccccc1)C(=O)N[C@H](CCCCN)C(=O)N[C@H](CC(C)C)C(=O)N[C@H](CCC(N)=O)C(=O)N[C@H](CC(C)C)C(=O)N[C@H](CC(C)C)C(=O)N[C@H](CCCCN)C(=O)N[C@H](CCCCN)C(N)=O,,"KCCM 40203, Mueller-Hinton broth",24 h,4 µM
CC[C@H](C)[C@H](NC(=O)[C@@H](CCCNC(=N)N)NC(=O)[C@H](CCCNC(=N)N)NC(=O)[C@@H]1CCCN1C(=O)[C@@H]1CCCN1C(=O)[C@H](CCCNC(=N)N)NC(=O)[C@@H]1CCCN1C(=O)[C@H](CCCNC(=N)N)NC(=O)[C@@H]1CCCN1C(=O)[C@H](CCSC)NC(=O)[C@H](Cc1ccc(O)cc1)NC(=O)[C@@H]1CCCN1C(=O)[C@@H]1CCCN1C(=O)[C@H](CCCCN)NC(=O)[C@H](CC(=O)O)NC(=O)[C@@H](N)C(C)C)C(=O)N[C@@H](Cc1ccc(O)cc1)C(=O)N[C@@H](CC(N)=O)C(=O)N[C@H](CCCNC(=N)N)C(N)=O,broth microdilution,DSM 30008,"18 h, 37 °C, 25% MHB2",64 µg/mL
CCCCCCCC(=O)N[C@@H](CCN)C(=O)N[C@H](C(=O)N[C@@H](CCN)C(=O)N[C@H]1CCNC(=O)[C@H]([C@@H](C)O)NC(=O)[C@H](CCN)NC(=O)[C@H](CCN)NC(=O)[C@H](CC(C)C)NC(=O)[C@@H](C)NC(=O)[C@H](CCN)NC1=O)[C@@H](C)O,broth microdilution,ATCC 19606,"20 h, 37 °C",256 µg/mL
CN[C@H](CC(C)C)C(=O)N[C@H]1C(=O)N[C@@H](CC(N)=O)C(=O)N[C@H]2C(=O)N[C@H]3C(=O)N[C@H](C(=O)N[C@H](C(=O)NCc4cn(CCCCC(=O)N[C@H](C(=O)N[C@@H](CCN)C(=O)N[C@H]5CCNC(=O)[C@H]([C@@H](C)O)NC(=O)[C@H](CCN)NC(=O)[C@H](CCN)NC(=O)[C@H](CC(C)C)NC(=O)[C@@H](CC(C)C)NC(=O)[C@H](CCN)NC5=O)[C@@H](C)O)nn4)c4cc(O)cc(O)c4-c4cc3ccc4O)[C@H](O)c3ccc(c(Cl)c3)Oc3cc2cc(c3O[C@@H]2O[C@H](CO)[C@@H](O)[C@H](O)[C@H]2O[C@H]2C[C@](C)(N)[C@H](O)[C@H](C)O2)Oc2ccc(cc2Cl)[C@H]1O,broth microdilution,BAA-747,,25 µM
CC[C@H](C)[C@H](NC(=O)[C@@H](CCCNC(=N)N)NC(=O)[C@H](CCCNC(=N)N)NC(=O)[C@@H]1CCCN1C(=O)[C@@H]1CCCN1C(=O)[C@H](CCCNC(=N)N)NC(=O)[C@@H]1CCCN1C(=O)[C@H](CCCNC(=N)N)NC(=O)[C@@H]1CCCN1C(=O)[C@H](CC(C)C)NC(=O)[C@H](Cc1ccc(O)cc1)NC(=O)[C@H](CCCNC(=N)N)NC(=O)[C@@H]1CCCN1C(=O)[C@H](CCCCN)NC(=O)[C@H](CC(=O)O)NC(=O)[C@@H](N)C(C)C)C(=O)N[C@@H](Cc1ccc(O)cc1)C(=O)N[C@@H](CC(N)=O)C(=O)N[C@H](CCCNC(=N)N)C(N)=O,broth microdilution,DSM 30008,"18 h, 37 °C, 25% MHB2",32 µg/mL
N=C(N)NCCC[C@@H]1NC(=O)[C@H](CCCNC(=N)N)NC(=O)[C@@H](CCCNC(=N)N)NC(=O)[C@H](C(c2ccccc2)c2ccccc2)NC(=O)[C@H](C(c2ccccc2)c2ccccc2)NC(=O)[C@H](C(c2ccccc2)c2ccccc2)NC(=O)[C@H](CCCNC(=N)N)NC1=O,,"NCTC 13304, carbapenem-resistant",,16 µg/mL
CCCC[C@H](NC(=O)[C@H](Cc1ccc(O)cc1)NC(=O)[C@@H]1CCCN1C(=O)[C@@H]1CCCN1C(=O)[C@H](CCCCN)NC(=O)[C@H](CC(=O)O)NC(=O)[C@@H](N)C(C)C)C(=O)N1CCC[C@H]1C(=O)N[C@@H](CCCNC(=N)N)C(=O)N1CCC[C@H]1C(=O)N[C@@H](CCCNC(=N)N)C(=O)N1CCC[C@H]1C(=O)N1CCC[C@H]1C(=O)N[C@@H](CCCNC(=N)N)C(=O)N[C@H](CCCNC(=N)N)C(=O)N[C@H](C(=O)N[C@@H](Cc1ccc(O)cc1)C(=O)N[C@@H](CC(N)=O)C(=O)N[C@H](CCCNC(=N)N)C(N)=O)[C@@H](C)CC,broth microdilution,DSM 30008,"18 h, 37 °C, 25% MHB2",32 µg/mL
CCCCCCCC(=O)N[C@@H](CCN)C(=O)N[C@H](C(=O)N[C@@H](CCN)C(=O)N[C@H]1CCNC(=O)[C@H]([C@@H](C)O)NC(=O)[C@H](CCN)NC(=O)[C@H](CCN)NC(=O)[C@H](Cc2ccc(C(F)(F)F)cc2)NC(=O)[C@@H](CC(C)C)NC(=O)[C@H](CCN)NC1=O)[C@@H](C)O,broth microdilution,colistin-resistant isolates,,1 to 2 µg/mL

# Some of these lines once more:
Structure (SMILES),assay,test system,conditions,MIC
CC[C@H](C)[C@H](NC(=O)[C@H](C)NC(=O)[C@@H](NC(=O)[C@H](CC(=O)O)NC(=O)[C@H](CCCCN)NC(=O)[C@H](CO)NC(=O)[C@@H](NC(=O)[C@H](CC(N)=O)NC(=O)[C@H](C)NC(=O)[C@@H](NC(=O)[C@H](CCC(=O)O)NC(=O)[C@H](CCCCN)NC(=O)[C@@H](NC(=O)[C@@H](NC(=O)[C@H](Cc1c[nH]cn1)NC(=O)[C@H](CCCCN)NC(=O)[C@@H](NC(=O)[C@H](CCCCN)NC(=O)[C@H](CCCCN)NC(=O)[C@@H](NC(=O)[C@H](CC(C)C)NC(=O)[C@H](CCCCN)NC(=O)[C@H](CC(N)=O)NC(=O)[C@H](Cc1ccccc1)NC(=O)[C@H](CCCNC(=N)N)NC(=O)[C@H](CCCCN)NC(=O)[C@H](CCCNC(=N)N)NC(=O)[C@H](Cc1ccccc1)NC(=O)CN)C(C)C)C(C)C)[C@@H](C)O)[C@@H](C)CC)[C@@H](C)O)C(C)C)C(C)C)C(=O)N[C@H](C(=O)N[C@@H](C)C(=O)NCC(=O)N[C@@H](CO)C(=O)NCC(=O)N[C@H](C(=O)N[C@@H](C)C(=O)N[C@H](C(=O)NCC(=O)N[C@@H](C)C(=O)N[C@@H](C)C(=O)N[C@@H](CCSC)C(N)=O)C(C)C)C(C)C)C(C)C,broth microdilution,"RKI 19/09, CAMHB with 10% mouse serum",,0.03 µg/mL
C=C1NC(=O)C2C[S+]([O-])CC3NC(=O)C(CSC(C)C(NC(=S)C(Cc4cnc[nH]4)NC(=O)c4csc(C(C)NC(C)=O)n4)C(=O)N[C@H](CC(C)C(=O)NC(=O)CC(C(=O)O)NC(=O)C(C)NC3=O)C(=O)N2)NC(=O)[C@@H]2CCCN2C(=O)[C@@H](CC(C)C)NC1=O (stereo partly drawn),bacterial growth,09987,,> 32 µg/mL
